Assay results of several laboratories.
A part holds a random share of what one study measured. Positions count from the first letter of the parent shown.

Study 1 — technique: RNA Bind-n-Seq; molecule type: RNA; matrix: in vitro; tested at: 365 nM; relative to: no-protein control; reading: higher = stronger binding
Target: RNA binding protein fox-1 homolog 2, RRM domain, GST-SBP tag (RBFOX2, Homo sapiens, UniProt O43251-10, residues 100-194)
Setting: natural RNA segment, single round, ends assumed
Constant ends, left off below: GGGAGUUCUACAGUCCGACGAUC … UGGAAUUCUCGGGUGCCAA
Construct (chain): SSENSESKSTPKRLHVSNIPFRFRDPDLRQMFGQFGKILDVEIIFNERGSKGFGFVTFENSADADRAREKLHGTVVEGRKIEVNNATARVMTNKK
Sequence | RBNS enrichment (R)
UGAAGCAUUGUGUGUUCUCAUUCGGGUGGUAACAAUGUAUGUGUAAUAUUUUUUUCUUAGUGAUUUUGACAGUUUAAAUGUUUAACAACUUAAAGCAUUAAAAAUGCUUA | 0.709
UUCUAGCAGAGGCAAGAAUACAUAUUCAUAUACGCUUACUUAUGAAUUACCAUUUUAACAUUUAGAUAACAUGAAAUAUGGCCCUCUUGAAUUCUUGCUUUUAAGUUCCU | 0.599
GUGGGGACGCCUGUUGUUUUGGCUCAAUUUGGGUUUGUUGGUCACAUGGAGCUCUUCCAUUUCGUUUAGCUGAAUAAUGAGUUGUUCCUAGAGGAGACAGCCUGUCUCUC | 0.331
UCUGGCCAUACUUGCAUUAGUGACUGUCUUGCCUUAACCACACUUAAGCAACCCACAAAUUUCUUCUCAGAUUUGUUUCCUAGAUUACUUAUGAUACUCAUCCCAUGUCU | 1.26
UUUUGGGCUUUUAGUUAGCUAAUGAAUGAAUACAUUAGACACUUUUGGGUUUUAGUUGGGAUUUUACAUAGCUUGCAUUUUAAUUCUUUGGUUCUUUGCUGUUUCUAUUA | 1.01
AGGAAACGUCCCUAGGUAGGCUUGGUCAUUUGUGGGUUUUUCCCAGGCCUGACGUUAAGAAUGGUGAGUGCAUAGGCAGAAUGAGGCCUGAAUAAAGAUGGGCUCUGAAA | 3.13
CACCCAGUUCCGCUCAGGGCCAUACAGGCUUGCACAUAGAGUGUGCUAAAAAUGGUAACCUCCUUUGAGCAUUGCAGAAAGAGGGUUCUGUUUCAAAUUGGGCUGACCGU | 0.437
GCUUUGAAAAGUAUAAGGUGCCAUCCACAUAACCUGGUGUUCACGAGAACACACUAAAGGACUCCUGAGUCACUACCACAGCCACCUGGAAACCACAAGGCAUUUGAUGC | 0.334

Study 2 — technique: protein binding microarray; molecule type: double-stranded DNA, one strand shown; matrix: in vitro; tested at: not given; relative to: not given; reading: higher = stronger binding
Target: Histone acetyltransferase KAT6A, winged helix 1, GST fusion (KAT6A, Homo sapiens, UniProt Q92794, residues 1-85)
Setting: 8-mer, flanks averaged, mean of 2 arrays, mostly near background
Target sequence (chain): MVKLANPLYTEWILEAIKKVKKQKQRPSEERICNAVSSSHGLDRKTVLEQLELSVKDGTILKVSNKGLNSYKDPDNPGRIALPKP
Sequence | E-score
AAAAGGTG | -0.181
CCTACTCC | -0.238
GACGGGCA | 0.286
CGAGCGGC | 0.386
ACATCGCT | -0.0955
TGCTCAAA | -0.241
ACTCTATG | -0.0551
CATCACGA | -0.214
CACACCGG | 0.253
GAGTAGGA | -0.186
GGCATTAA | -0.0585
AATGAGCT | -0.187
ACAGGTTC | -0.178
AGCTTAGA | -0.0913
ATTTTGTG | -0.187
AATTGTGA | -0.174
CGCGCGAA | 0.404
ATGAAGTA | -0.0596

Study 3 — target: CCNB3, cyclin fold, Cln2 fusion (human); technique: yeast growth competition, sequencing; matrix: yeast; setting: weak parent motif; relative to: not given; reading: higher = stronger binding
Starting sequence: SLBP docking peptide (human); ARYKRKLLINDFG
Variant | normalised enrichment score
F12N | 0.0507
L8N | 0.27
L8C | -0.118
F12L | 0.485
R5C | 0.452
I9L | 0.378
L8Y | 0.212
F12V | -0.175
D11G | 0.259
N10F | 0.522
K4R | -0.0467
R2G | 0.343
R2Q | 0.68
A1G | 0.512
K4V | 0.281
N10I | 0.105
L7N | 0.839
R5S | 0.885
G13M | 0.383
K4G | 0.263
I9G | 0.238
R2C | -0.0473
G13D | -0.172
K4C | -0.0165
R2S | -0.255

Study 4 — technique: RNA Bind-n-Seq; molecule type: RNA; matrix: in vitro; tested at: not given; relative to: input RNA pool; reading: higher = stronger binding
Target: RING finger protein unkempt homolog, zinc fingers 1-6, GST-SBP tag (UNK, Homo sapiens, UniProt Q9C0B0, residues 30-357)
Chain of UniProt Q9C0B0 (30-357, looked up): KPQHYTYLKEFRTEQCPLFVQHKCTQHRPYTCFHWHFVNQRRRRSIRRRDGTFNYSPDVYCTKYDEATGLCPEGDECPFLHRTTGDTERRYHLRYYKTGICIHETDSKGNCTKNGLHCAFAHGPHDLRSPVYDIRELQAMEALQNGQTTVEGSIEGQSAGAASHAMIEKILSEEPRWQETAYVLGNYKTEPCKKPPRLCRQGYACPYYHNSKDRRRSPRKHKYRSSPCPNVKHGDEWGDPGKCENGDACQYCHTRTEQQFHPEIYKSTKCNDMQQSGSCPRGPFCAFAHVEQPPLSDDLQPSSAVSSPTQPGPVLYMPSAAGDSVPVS
Setting: RNA with constant flanks, human-mouse chimeric sites, ends assumed
Constant ends, left off below: GGGAGUUCUACAGUCCGACGAUC … CAACAGAGGAUUGAGCAUCA
Sequence | bound/input enrichment
UACUCAACUUUCUUGCCACGUUUUGAAUUCCAAGACAUUAUUCCUCCAGAUGACUUCCUAACGAGUGAUGAAGAGCAAGAUUCCGUUUUAUUUGGAACUAUGAGAGGACAAGUUGUUGGA | 0.194 ratio
AUCAAAUACUUUGGGGACAUCAUUAGUGUGGGACAGAGACUGUUGCAAGGAGCUCGGAUCUUAGGGAUUCCAGUUAUUGUAACAGAACAAUACCCCAAAGGACUUGGCAGCACCGUUCAA | 0.161 ratio
GGAUCUUUGGGACUGUUUUACUUAAUUGGUCAUUGAUAUCUCAACAAACAUGGAGAUAAGAUUAGAAAUCUUGACAUCAACAGGUAUUAAGCAGAAAAAACCAUGGCCACGUGUCUCCUG | 0.154 ratio
GUUGCCAGCUUCCGGUUCCGUUGGGCUAGCAAGCUCCCUGAGCUACGGUCCCUGGCACUCUCAAUCCGCCAUCCAACAAACAUGGAUCAGGUAAUGCAGUUUGUGGAGCCCAGCCGGCAG | 0.107 ratio
CACAGAGCAGCACCUACCCCCUCCUCCUUUCCACACCUGCAAACUCUUUUACUUGGGCUGAAUAUUUAGUGUAAUUAACAUCGCAGCUUGAGGGCUCCUGUGGCAAAUUCCCGGAUUAAA | 1.41 ratio
AGAAAGCAAAACUUGGAACGAUUUAAGAAAGGAGACGUAAGAUUCUUGAUUUGCACAGAUGUAGCUGCUAGAGGAAUUGAUAUCCAUGGCGUUCCUUAUGUUAUAAACGUCACCCUGCCU | 0.221 ratio
UCUGAGGUACCACUGAAAGAGACAUUAAAGAAUCAUUUGAGGGCUCUGUUCGUGCAAGAAUAGUCACUGAUCGGGAAACUGGUUCUUCCAAAGGGUUUGGUUUUGUAGACUUUAAUAGUG | 0.813 ratio
GGAAGUACAAUGAUGGAGAUUGAUGGUGACAAAGGCAAGCAGGGCGGGCCCACCUACUACAUAGACACCAAUGCCCUGCGUGUUCCGAGGGAGAACAUGGAGGCCAUUUCACCUCUAAAG | 0.284 ratio

Other studies, line by line
Substance | target | assay | system | setting | scale | endpoint | result
PhoQ, residues 284 288 289 292 302 303 SSYNSA | PhoP, residues 12 14 15 18 19 IFFTR (Escherichia coli, UniProt P23836) | Sort-seq, refers to: YFP reporter | E. coli | PhoQ-PhoP variant library, together with: 10 µM Mg2+ | relative to: high Mg2+ state, higher = stronger signaling | fold induction | 20.7

A few entries again (study 3):
Variant | normalised enrichment score
L8Y | 0.212
I9G | 0.238
F12V | -0.175
R2C | -0.0473
L7N | 0.839
F12L | 0.485
R5C | 0.452
K4R | -0.0467
F12N | 0.0507
